Results collected from several papers.
Numbered parts are unrelated; each lists some results of a single study. Changes are numbered by the printed parent chain.

Sample 1 — target: CCNB2, cyclin fold, Cln2 fusion (human); technique: yeast growth competition, sequencing; medium: yeast; setting: weak parent motif; baseline: not given; direction: higher = stronger binding
Starting sequence: E2F1 docking peptide (human); PPVKRRLDLETDH; partner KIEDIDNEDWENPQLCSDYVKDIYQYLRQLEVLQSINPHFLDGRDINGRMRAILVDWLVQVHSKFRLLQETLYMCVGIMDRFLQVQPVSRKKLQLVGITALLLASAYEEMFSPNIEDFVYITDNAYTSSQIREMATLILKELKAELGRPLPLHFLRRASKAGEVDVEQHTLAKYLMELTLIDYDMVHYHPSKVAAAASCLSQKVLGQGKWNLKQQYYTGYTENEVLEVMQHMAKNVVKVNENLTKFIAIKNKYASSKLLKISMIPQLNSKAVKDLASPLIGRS
Change	normalised enrichment score
PPVKRRLDLEVDH [T11V]	0.223
PPVKRRLDLETDD [H13D]	0.814
PGVKRRLDLETDH [P2G]	0.087
PPVKRRLDLETNH [D12N]	-0.402
CPVKRRLDLETDH [P1C]	0.361
PVVKRRLDLETDH [P2V]	0.166
PPVLRRLDLETDH [K4L]	-0.211

Sample 2 — technique: Sort-seq; measured: YFP reporter; medium: E. coli; setting: PhoQ-PhoP variant library; with: 10 µM Mg2+; baseline: high Mg2+ state; direction: higher = stronger signaling
Molecule: PhoQ, residues 284 288 289 292 302 303 SMYGEC
target	fold induction
PhoP, residues 12 14 15 18 19 TQCLL (Escherichia coli, UniProt P23836)	11.4
PhoP, residues 12 14 15 18 19 ICWRQ (Escherichia coli, UniProt P23836)	15.2
PhoP, residues 12 14 15 18 19 VHTVL (Escherichia coli, UniProt P23836)	1.51

Sample 3 — technique: protein binding microarray; molecule type: double-stranded DNA, one strand shown; medium: in vitro; concentration: not given; baseline: not given; direction: higher = stronger binding
Target: Histone acetyltransferase KAT6A, winged helix 1, GST fusion (KAT6A, Homo sapiens, UniProt Q92794, residues 1-85)
Setting: 8-mer, flanks averaged, mean of 2 arrays, mostly near background
Construct (chain): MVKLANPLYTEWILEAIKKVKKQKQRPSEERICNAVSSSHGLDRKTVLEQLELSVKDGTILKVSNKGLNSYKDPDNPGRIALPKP
Oligonucleotide	E-score
AACTGCTT	-0.0737
AGAATGCG	0.163
CATTGATA	-0.042
CTGCCTTA	-0.0946
AAGGCATC	-0.201
CTTTCAAC	-0.0798
CGCCAGAC	0.188
CATATTCG	-0.0446
ACTTGTAA	-0.00136
TAACAAGA	-0.197
CAGCGCTC	0.224
TCAGGGGA	-0.123

Sample 4 — technique: universal PBM; molecule type: double-stranded DNA, one strand shown; medium: in vitro; concentration: not given; direction: higher = stronger binding
Target: Sal-like protein 4, full length isoform B (SALL4, Homo sapiens, UniProt Q9UJQ4-2, residues 1-616)
Setting: 8-mer, flanks averaged, mean of replicates
Oligonucleotide	E-score
GCCCGTCA	-0.236
AAAGGGTA	0.192
CCCCTATC	-0.201
AGTGACTG	-0.187
TTCCGAAA	0.168
CACGGATA	0.0928
ACGCATGG	-0.137
GGTGGTGA	-0.177
AGTGCCGA	-0.173
CCCATCGC	-0.25
ATTTCTTG	0.282
CGTGTTCA	0.017
